Experimental data gathered from unrelated publications.
Parts stem from different laboratories: compare values within a part only.

Series 1
Target: Phosphate system positive regulatory protein PHO4, full length, GST-tagged (PHO4, Saccharomyces cerevisiae, UniProt P07270, residues 1-312)
Method: competition protein-binding microarray
Form: double-stranded DNA, one strand shown
Sample: in vitro
Tested at: 2 µM
Notes: whole 60-bp probe, lowest competitor level
Added: Cbf1 competitor, 0.05 µM
Direction: higher = stronger binding
Shared flanks, not repeated: … GTCTTGATTCGCTTGACGCTGCTG
Target sequence (chain): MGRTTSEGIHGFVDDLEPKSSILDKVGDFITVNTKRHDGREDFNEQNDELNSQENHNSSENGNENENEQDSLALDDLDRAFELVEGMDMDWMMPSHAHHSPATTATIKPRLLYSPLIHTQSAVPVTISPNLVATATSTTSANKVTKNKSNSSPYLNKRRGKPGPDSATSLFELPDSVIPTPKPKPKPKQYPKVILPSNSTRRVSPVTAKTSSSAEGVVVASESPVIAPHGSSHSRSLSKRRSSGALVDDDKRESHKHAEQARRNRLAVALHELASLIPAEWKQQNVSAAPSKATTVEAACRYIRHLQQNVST
Oligonucleotide | fluorescence intensity
GGAGTTCGGGAGTTGCACGTGGCACCTGGTGACAGC | 14200 a.u.
TTCGACAGCGCTAACGTTGTGACGGTAAGTGCTTTC | 3680 a.u.
CACAACAGTTCCAATCACGTGATGGTTACTGGACTT | 15200 a.u.
CGTCCTAGTGATTTTCACGTGAACTCCATGAGGAAG | 9360 a.u.
TGGACGCAATTGGTTGGTGTGACGCCACTTTCTCTT | 3310 a.u.
GGTGTCTCTGTCAGCCCCGTGGTCGCCAGCACAGAA | 11000 a.u.
CTTCTGTAAATTTGATCAGTGGGTGGACGCGCCCCG | 3850 a.u.
CAATCTTGGCGTTCACACGTGGGTATAAAAAGGCAA | 16600 a.u.

Series 2
Target: RNA binding protein fox-1 homolog 2, RRM domain, GST-SBP tag (RBFOX2, Homo sapiens, UniProt O43251-10, residues 100-194)
Method: RNA Bind-n-Seq
Form: RNA
Sample: in vitro
Tested at: 365 nM
Notes: natural RNA segment, single round, ends assumed
Baseline: no-protein control
Direction: higher = stronger binding
Shared flanks, not repeated: GGGAGUUCUACAGUCCGACGAUC … UGGAAUUCUCGGGUGCCAA
Target sequence (chain): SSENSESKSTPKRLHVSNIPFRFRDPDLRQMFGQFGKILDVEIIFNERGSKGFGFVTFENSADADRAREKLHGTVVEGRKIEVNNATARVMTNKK
Oligonucleotide | RBNS enrichment (R)
GAGACUCCUCAGAUGUGGGAACUCUGGUUCUUUCCGUGCUGUGUUCUGGAGAGAUCUCACGUGGAUGGUACCGGUGCUCUGAGCACCACAGAUGUGAGCUACAGUUCGUU | 0.392
ACAGCUGCAGUGGACUCAUAAGUAAAAAGACCUCUUCCUUUGGCUUGGGGUACACCUUUGGAUGCUAUGGAAAUACGCAGUUUGGUUUCAGAAAAGAUUUAUUAGAAAAC | 0.544
UUGCCGAGGCUUCCUGCUAGCAACCACACUGAAGAGAUCGAUGCCUCCUUUCAAGCUAGCCAAGUUUUCUGCGAGCCUUCAGAGCUAGGAGGGCACCCUAGGCUCUGGGA | 0.501
GAAACAAAGAUUUUAAGCCUUCUUCUUUUUUUCUUUUUUCUUUUUUUUUUGAGACCAAGUCUCACUCUGUUGCCCAGGCUGGAGUGCAGUGGCACGAUCUUGGCUUACUG | 2.06
CACUGCCACGUGGACCCCUAUGCGUGCGCAGAGGGCAGCGGGUAUGUGGCUUUGCAGGCCCGGCCCAUGCCUCUGCAGCCACACAGCACAACGUCUCUACUGUGCCUAUU | 0.292
GUCCCCUUGUAGCAUAUGCAUUAUGUCAUCUGAAUUGAGGCCUUUCUGUGAACAGCAUCAUAACUUCUAUCAUGGAAAGUGUACUAUAUAUAAUGUUUGUGUCAUGUAUA | 0.474
AGGGGACUGUCAAUCACAGGGUUUCAUAUGUUGUCAUUGUCACUCUUUCACAUUUUUGUACAUCAGUGAAUUUUUUAUAUUAAAAGGUUGAGCCAAAGCCCCCAGUGUUU | 0.525
UUUCCUAUCUAGAGAUGGAAGAGGGGCCAGUCAUCAGGCUAGUCACAAAGCUCAAUAAAUAUCCAUUACUCUGCUCAGAGUGUUGAGAGAGAAGCCCUAAUUAACAACGU | 0.423
CAUAUGGCUAGCACCAUGGACUAUAUAUACCCACUGACCGAUUUUCAUUAAAUUUUGUCUUAUAAACAUUGUUGGGUAAUUGAAGCUAUCUGUGUAAUAUUAAAAUAUAG | 0.401
UUAAAUGUCCCAAGCACCUUGUCUCCCUUCCCAAGAACAAACCAUUUCUGUGCACAUCCUUGGAGGCGAGAUGAGCUCCUUGCAGAGGGCCAGAGUAAGUGCAAGUCAUG | 0.579
GUCAGGGACUUGAUAACCUGAUGUUUGAUGUAGAUCCCUGCUGGGGAGUCCACAACUAUGAAUGUAUUUACUUCCAACAUUUCCCAAAAUGAAAACUAUAAAUUGCAAGU | 0.825
GCAUGGCGCCUGCUGGAGGAGGAGAGAGCUCUGCUGGCAUGAGCCACAGUUUCUUGACUGGAGGCCAUCAACCCUCUUGGUUGAGGCCUUGUUCUGAGCCCUGACAUGUG | 0.929

Series 3
Target: Fragile X messenger ribonucleoprotein 1, C-terminal low-complexity region (Fmr1, Mus musculus, UniProt P35922)
Method: RNA Bind-n-Seq
Form: RNA
Sample: in vitro
Tested at: 200 nM
Notes: whole 134-nt RNA, ends assumed
Added: 150 mM LiCl
Baseline: input library
Direction: higher = stronger binding
Library: 7-deaza-guanosine replaces G
Shared flanks, not repeated: GGGAGUUCUACAGUCCGACGAUC … UGGAAUUCUCGGGUGUCAAGG
Oligonucleotide | log2 enrichment
UGGCCCUGGUGGCAUGCGGGGAGGAAGAGGUGGCCUCAUGGAUCGUGGUGGUUCCGGUGGAAUGUUCAGAGGUGGCCGUGGUGGAGACAG | 0.205
GUCCUGUGCUACACAUCGUAUGUACCGAAUCGGGGUGGGGAAAAAGGGGAAAAAGGGGAAAGUAUUAUGUUACGCCGUUCGGAUCUGCAC | 0.915
UGAAAAUUCUCGACUGGCUGCUGAGGUUUACAAAGACAUGCCGGAAACCAGCUUUACUCGAACCAUUUCUAAUCCUGAGGUGGUUAUGAA | -3.03
AAGUCCUGUGCUACACAUCGUAUGUACCGAAUCGGGCCCGGGGCCCGGGGCCCGGGAAAGUAUUAUGUUACGCCGUUCGGAUCUGCACUU | -2.92
CCUCAAGUCCUGUGCUACACAUCGUAUGUACCGAAUCGGGUGGGGUGGUGGGAAAGUAUUAUGUUACGCCGUUCGGAUCUGCACUUCCAG | -0.271
GUCCUGUGCUACACAUCGUAUGUACCGAAUCGGGGUUUGGGGAGGGGAAAAAAAGGGGAAAGUAUUAUGUUACGCCGUUCGGAUCUGCAC | 0.266
AGUCCUGUGCUACACAUCGUAUGUACCGAAUCGGAAAAAGGAAAAAGGGAAAAAGGGGAAAGUAUUAUGUUACGCCGUUCGGAUCUGCAC | -0.847
UUCACAGGUAAGUGGGGCAGUGUCCGGACCAGUGGACGCAGCAGUGGCCUUGGCACCGAUGUGGGCUCCCGGCUAGCUGGCAGAGACGCG | -0.305
GUCCUGUGCUACACAUCGUAUGUACCGAAUCGGGGUUUUUGGGGUGGGGAAAAAGGGGAAAGUAUUAUGUUACGCCGUUCGGAUCUGCAC | -0.0414
CACAGACAACACGCACCAACACAGACACAGAGGGAAGGGGUUGGGAUGGGGACAGGGUGCACAGCAGGGCGGGGUAGGACCCCAGCCCCU | 0.676

Mixed results
Molecule | target | test | test system | conditions | how to read | endpoint | result
PhoQ, residues 284 288 289 292 302 303 AEGLLW | PhoP, residues 12 14 15 18 19 IQFRS (Escherichia coli, UniProt P23836) | Sort-seq, item: YFP reporter | E. coli | PhoQ-PhoP variant library, added: 10 µM Mg2+ | baseline: high Mg2+ state, higher = stronger signaling | fold induction | 17.8
